Published values from different studies.
Each line is one published result; not all experiments were run side by side. “And” joins repeats or separate records; there may be more than shown.

| Compound | target or system | test | test system | conditions | scale | measurement | result |
| --- | --- | --- | --- | --- | --- | --- | --- |
| COc1ccc(Nc2n[nH]c3nc(-c4ccccc4)nc(N)c23)c(OC)c1 | HeLa Ohio | – | – | 72 h | – | CC50 | > 138 µM |
| O=C(Nc1cnccc1-c1ccc([18F])nc1)c1ccnc(NC(=O)C2CC2)c1 | – | – | FVB/NJ mouse, both sexes, liver | intravenous, 40 min, with: tariquidar 15 mg/kg iv | – | SUV | 8.67 |
| Nc1nc(-c2ccccc2)nc2[nH]nc(Nc3ccc(F)cc3F)c12 | HeLa Ohio | – | – | 72 h | – | CC50 | > 148 µM |
| C=C(NC(=O)c1csc(-c2nc3c(cc2O)-c2nc(cs2)C(=O)NC(C(C)O)C(=O)NC(=C(C)OC)c2nc(cs2)C(=O)NC2c4nc(cs4)C(=O)NC(COC(=O)c4c5c6c(cccc6n4O)COC(=O)C(OC4CC(C)(O)C(N(C)C)C(C)O4)C2OC5)c2nc-3cs2)n1)C(N)=O (stereo not shown) | – | – | ICR mice, Streptococcus pneumoniae ATCC 49169 infected, immunocompromised, blood | intravenous, 8 mg/kg once daily | – | AUC(0-t) | 0.525 µM·h |
| Nc1nc(-c2ccccc2)nc2[nH]nc(NC3CCCCC3)c12 | HeLa Ohio | – | – | 72 h | – | CC50 | > 162 µM |
| N#C[C@@H]1CC(F)(F)CN1C(=O)CNC(=O)c1ccnc2c(NC(=O)CCOCCOCCOCCOCCOCCOCCNC(=O)[C@H](CCCCNC(=O)CN3CCN(CC(=O)[O-])CCN(CC(=O)[O-])CCN(CC(=O)[O-])CC3)NC(=O)CCCc3ccc(I)cc3)cccc12.[177Lu+3] | U-87 MG tumour model | – | host not given, stomach | 1 h, tumour-bearing | – | tracer uptake | 0.99 %ID/g |
| Nc1nc(-c2cc(C(F)(F)F)cc(C(F)(F)F)c2)nc2[nH]nc(Nc3ccc(Cl)cc3)c12 | HeLa Ohio | – | – | 72 h | – | CC50 | 9.3 µM |
| O=C1C2CC3CC1CC(C(=O)N1CCN(c4ccc([N+](=O)[O-])c5ncccc45)CC1)(C3)C2 | Salmonella typhimurium | Ames test | TA97a | 0.02 µg/well, without S9 | baseline: vehicle | revertant fold increase | 0.9 |
| Cc1ccc(Nc2n[nH]c3nc(-c4cccc(F)c4)nc(N)c23)cc1 | HeLa Ohio | – | – | 72 h | – | CC50 | 36.2 µM |
| CC(C)OCCOCc1ccc(OCC(O)CN(N=O)C(C)C)cc1 (stereo not shown) | Escherichia coli | Ames test | WP2 uvrA | 1580 µg/plate, without metabolic activation | baseline: solvent control | revertant fold increase | 0.8 fold |
| CCN(CC)CC#CCNc1ccnc2cc(Cl)ccc12 | Salmonella typhimurium | mini-Ames test | TA1535 | 62.5 µg/well, without S9 | – | revertants | 4 revertants/well and 2 revertants/well |
| CN(Cc1ccccc1)C(=O)CN1CCN(CC(=O)[O-])CCN(Cc2cccc(C(=O)[O-])n2)CC1.[18F-].[Sc+3] | – | – | mouse, lung | intravenous, 1 h | – | tracer uptake | 0.23 %ID/g |
| N#C[C@@H]1CC(F)(F)CN1C(=O)CNC(=O)c1ccnc2c(NC(=O)[C@@H](N)CCCCNC(=O)CCOCCOCCOCCOCCOCCOCCNC(=O)CN3CCN(CC(=O)[O-])CCN(CC(=O)[O-])CCN(CC(=O)[O-])CC3)cccc12.[177Lu+3] | U-87 MG tumour model | – | host not given, heart | 48 h, tumour-bearing | – | tracer uptake | 0.03 %ID/g |
| O=C([O-])CN1CCN(CC(=O)[O-])CCN(Cc2cccc(C(=O)[O-])n2)CC1.[18F-].[Sc+3] | – | – | mouse, spleen | intravenous, 1 h | – | tracer uptake | 0.09 %ID/g |
| OC(Cc1cc(-c2ccc(C(O)C(F)(F)F)s2)sc1-c1ccc(-c2sc(-c3ccc(C(O)C(F)(F)F)s3)cc2CC(O)C(F)(F)F)s1)C(F)(F)F (stereo not shown) | primary human fetal neurons | LC-MS/MS | – | 4 µM, 60 min, replicate 3 | – | amount in cell extract | 0.02 nmol and 0.01 nmol |
| CNC(=O)C1CCCN(C(=O)C2CC3CCC2N3C(=O)[C@@H]2C[C@@H](O)CN2C(=O)NCc2cccc(Cl)c2F)C1 (mixture of isomers) | CYP3A4 (human) | inhibitor, time-dependent inhibition | – | 1.85 µM, preincubated with NADPH, with: testosterone substrate | baseline: negative control | remaining activity | 97.7% |

Excerpt of the above:
| Compound | target or system | test | test system | conditions | scale | measurement | result |
| --- | --- | --- | --- | --- | --- | --- | --- |
| OC(Cc1cc(-c2ccc(C(O)C(F)(F)F)s2)sc1-c1ccc(-c2sc(-c3ccc(C(O)C(F)(F)F)s3)cc2CC(O)C(F)(F)F)s1)C(F)(F)F (stereo not shown) | primary human fetal neurons | LC-MS/MS | – | 4 µM, 60 min, replicate 3 | – | amount in cell extract | 0.02 nmol and 0.01 nmol |
